Measured values of several laboratories.
A part holds a random share of what one study measured.

Study 1 — technique: protein-binding microarray; molecule type: double-stranded DNA, one strand shown; sample: in vitro; tested at: 0.8 µM; notes: whole 60-bp probe, no competitor; direction: higher = stronger binding; endpoint: fluorescence intensity; constant ends, left off below: … GTCTTGATTCGCTTGACGCTGCTG
Target: Centromere-binding protein 1, full length, N-terminal tag (CBF1, Saccharomyces cerevisiae, UniProt P17106, residues 1-351)
UniProt P17106, sequence (whole entry, looked up): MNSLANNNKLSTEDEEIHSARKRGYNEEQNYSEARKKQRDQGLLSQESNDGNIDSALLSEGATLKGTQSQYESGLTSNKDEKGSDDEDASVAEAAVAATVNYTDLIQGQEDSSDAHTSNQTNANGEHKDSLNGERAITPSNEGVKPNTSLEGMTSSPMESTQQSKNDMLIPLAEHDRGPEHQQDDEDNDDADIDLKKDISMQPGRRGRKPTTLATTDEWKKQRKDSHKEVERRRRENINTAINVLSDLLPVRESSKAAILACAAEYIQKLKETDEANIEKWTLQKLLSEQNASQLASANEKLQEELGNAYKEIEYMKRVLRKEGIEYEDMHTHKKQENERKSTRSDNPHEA
CTATCCGTGCGAAGTGACCGCGTGGAAGGCCGGTTC: 558 a.u.
CTATGCAATGATTTAAGCGTGCGTGAAGATAACTTC: 565 a.u.
GAAATTATGATATATATCATGATGATTATTTTCTAG: 530 a.u.
CTAAAAGACAGGCAGCAGGTGAAGATAATACCATTC: 558 a.u.
CTAATTTAACAATATGGTGAATTAAGTGTTGATTTC: 517 a.u.
CTAACCCTAACAATACACATGATGCAACTGGAATTC: 725 a.u.
GAACACAAAATATCAAACGTGTTGTATTACGGGTAG: 550 a.u.
CCTAACTACTATAATCACGGAAGATAGCTTCGTACA: 535 a.u.

Study 2 — technique: RNAcompete; molecule type: RNA; sample: in vitro; tested at: 20 nM; notes: 7-mer, probes averaged, single round; relative to: mean of 7-mers; direction: higher = stronger binding; endpoint: 7-mer Z-score
Target: PABPC1L2, full length, GST fusion (mouse, UniProt A0ABA7IW68)
Target sequence (chain): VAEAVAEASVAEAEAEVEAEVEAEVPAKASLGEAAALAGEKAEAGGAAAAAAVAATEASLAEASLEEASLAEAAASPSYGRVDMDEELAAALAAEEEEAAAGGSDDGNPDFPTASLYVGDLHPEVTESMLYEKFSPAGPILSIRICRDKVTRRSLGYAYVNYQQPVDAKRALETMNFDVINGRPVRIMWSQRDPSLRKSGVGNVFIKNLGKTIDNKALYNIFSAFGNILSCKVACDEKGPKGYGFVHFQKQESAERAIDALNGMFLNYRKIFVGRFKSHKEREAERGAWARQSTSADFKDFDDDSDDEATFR
ACAUUGU: -0.0699
GAAGAGU: -0.15
CGCACCC: -0.46
AUCGUCA: -0.228
GGGAUUA: 0.1
AGUGGAC: 0.216
UCGCCUG: -0.44
AUAUAGA: 0.00617

Study 3 — technique: RNA Bind-n-Seq; molecule type: RNA; sample: in vitro; tested at: 20 nM; notes: 6-mer, flanks averaged, single round; together with: 150 mM LiCl; relative to: input library; direction: higher = stronger binding; endpoint: 6-mer enrichment (R)
Target: TAR DNA-binding protein 43, full length, His tag (TARDBP, Homo sapiens, UniProt Q13148, residues 1-414)
UCUCCG: 0.878
UUAGAG: 0.991
UGAGCG: 1.06
GCACAG: 0.915
CUUUAC: 0.939
UAAACA: 0.822
UUCCAC: 0.904
AACACC: 0.886

Mixed results
O=C(Nc1ccc(CN2CCOCC2)cc1)c1ccc(-c2cccc(Cl)c2)o1
nuclear SOX9 intensity (mouse MPNST tumor cells; high-content immunofluorescence imaging, refers to: nuclear SOX9; 10 µM, 12 h, mean of 2 replicates; relative to: DMSO control, higher = more nuclear SOX9): 191 % of DMSO

A few entries again (study 2):
GAAGAGU: -0.15
CGCACCC: -0.46
GGGAUUA: 0.1
